Measured values pooled from the literature.
Each line is one published result; not all experiments were run side by side. Values joined by “and” are separate records of one study, mostly repeats; a detail may differ. ± marks the error that the study gave.
Chain of UniProt Q9UIA9 (whole entry, looked up): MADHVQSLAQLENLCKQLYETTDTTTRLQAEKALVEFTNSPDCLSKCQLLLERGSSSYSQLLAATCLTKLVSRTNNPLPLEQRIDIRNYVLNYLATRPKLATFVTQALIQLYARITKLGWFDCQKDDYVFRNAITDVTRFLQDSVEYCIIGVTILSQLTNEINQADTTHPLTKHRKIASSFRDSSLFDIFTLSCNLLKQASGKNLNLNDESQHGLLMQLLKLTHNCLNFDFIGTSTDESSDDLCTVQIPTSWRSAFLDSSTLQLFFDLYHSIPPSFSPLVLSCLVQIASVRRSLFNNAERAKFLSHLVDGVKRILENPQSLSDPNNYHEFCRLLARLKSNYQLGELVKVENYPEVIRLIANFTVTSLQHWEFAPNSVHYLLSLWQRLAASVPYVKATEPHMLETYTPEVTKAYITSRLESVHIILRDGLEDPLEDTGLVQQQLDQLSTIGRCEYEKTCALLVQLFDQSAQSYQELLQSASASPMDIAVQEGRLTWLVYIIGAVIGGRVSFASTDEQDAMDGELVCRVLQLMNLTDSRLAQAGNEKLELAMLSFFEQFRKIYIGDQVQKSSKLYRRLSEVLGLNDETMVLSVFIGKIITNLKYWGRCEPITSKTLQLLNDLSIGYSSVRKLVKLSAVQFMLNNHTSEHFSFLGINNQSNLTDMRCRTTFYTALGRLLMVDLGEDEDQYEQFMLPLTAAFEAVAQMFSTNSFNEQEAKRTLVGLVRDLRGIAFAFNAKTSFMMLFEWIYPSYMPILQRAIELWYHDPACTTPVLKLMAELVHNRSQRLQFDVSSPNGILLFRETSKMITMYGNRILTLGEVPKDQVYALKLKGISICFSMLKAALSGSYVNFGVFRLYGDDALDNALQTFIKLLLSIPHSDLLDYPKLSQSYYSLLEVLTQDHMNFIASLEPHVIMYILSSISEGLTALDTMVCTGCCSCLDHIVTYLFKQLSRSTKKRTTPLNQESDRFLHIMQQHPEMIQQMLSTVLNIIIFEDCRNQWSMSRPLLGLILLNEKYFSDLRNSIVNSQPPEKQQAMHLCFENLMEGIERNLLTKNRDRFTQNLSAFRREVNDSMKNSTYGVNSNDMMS

Structure (SMILES) = CC[C@H](C)[C@H](NC(=O)[C@H](CCCCN)NC(=O)[C@H](CC(N)=O)NC(=O)[C@H](CCCNC(=N)N)NC(=O)[C@H](C)NC(=O)[C@H](CC(C)C)NC(=O)[C@H](CC(C)C)NC(=O)[C@H](CCSC)NC(=O)[C@H](Cc1c[nH]cn1)NC(=O)[C@H](CC(C)C)NC(=O)[C@H](CC(C)C)NC(=O)[C@H](CC(=O)O)NC(=O)[C@H](CCC(N)=O)NC(=O)[C@@H]1CCCN1C(=O)[C@H](Cc1c[nH]c2ccccc12)NC(=O)CNC(=O)[C@@H]1CCCN1C(=O)[C@H](CC(C)C)NC(=O)[C@@H](NC(=O)[C@H](Cc1ccc(O)cc1)NC(=O)[C@@H](NC(=O)[C@H](CC(C)C)NC(=O)[C@H](CCCCN)NC(=O)[C@@H](N)CCCNC(=N)N)C(C)C)C(C)C)C(=O)N[C@@H](CCCNC(=N)N)C(=O)N[C@H](C(=O)N[C@@H](CC(C)C)C(=O)N[C@@H](CCCCN)C(=O)N[C@@H](CC(N)=O)C(=O)N[C@@H](CC(N)=O)C(=O)N[C@@H](CCSC)C(=O)N[C@@H](Cc1ccccc1)C(=O)N[C@@H](CO)C(=O)N[C@@H](CCCCN)C(=O)N[C@@H](Cc1ccccc1)C(=O)N[C@@H](CCCCN)C(=O)N[C@@H](CCCCN)C(=O)N[C@@H](CC(C)C)C(=O)N[C@@H](CCCCN)C(=O)N[C@@H](CO)C(=O)N[C@@H](CC(C)C)C(=O)O)[C@@H](C)O; tested on = PMA-differentiated THP-1; test = cell viability, MTT; conditions = 24 h; endpoint = CC50; value = 23.3 µM
Structure (SMILES) = CO[C@H]1C[C@H](O[C@H]2CC[C@]3(C)[C@H]4CC[C@]5(C)[C@@H](C6=CC(=O)OC6)CC[C@]5(O)[C@@H]4CC[C@]3(O)C2)O[C@H](C)[C@H]1O[C@@H]1O[C@H](CO)[C@@H](O)[C@H](O)[C@H]1O; tested on = PH5CH8 hepatocytes; test = high-content cell count; conditions = 72 h; endpoint = CC50; value = 0.039 µM
Structure (SMILES) = CC(c1ccccc1)(c1ccc(O)cc1)c1ccc(O)cc1; tested on = HepG2 spheroids, dissociated; test = annexin V-FITC/PI flow cytometry; conditions = 40 µM, 24 h; endpoint = late apoptotic cells; value = 9.34 ± 4.4%
Structure (SMILES) = O=C(CC1NCCCC1O)Cn1cnc2cc(Br)c(Cl)cc2c1=O (stereo not drawn); tested on = pigeon embryo fibroblasts; endpoint = CC50; value = 0.5 µM
Structure (SMILES) = N=C(N)NCCC[C@H](NC(=O)[C@H](Cc1c[nH]c2ccccc12)NC(=O)[C@H](CCCNC(=N)N)NC(=O)[C@H](Cc1c[nH]c2ccccc12)NC(=O)[C@H](Cc1c[nH]c2ccccc12)NC(=O)[C@H](Cc1c[nH]c2ccccc12)NC(=O)[C@H](CCCNC(=N)N)NC(=O)[C@H](Cc1c[nH]c2ccccc12)NC(=O)[C@@H](N)CCCNC(=N)N)C(=O)N[C@@H](Cc1c[nH]c2ccccc12)C(N)=O; tested on = PK-15; endpoint = LC50; value = > 512 µM
Structure (SMILES) = COc1cc(Nc2ncc(F)c(Nc3ccc4c(n3)NC(=O)C(C)(C)O4)n2)cc(OC)c1OC; tested on = thyroid hormone receptor; endpoint = IC50; value = > 10 µM
Structure (SMILES) = C[C@H]1CN(c2n[nH]c3nc(N[C@H]4CC[C@H](NS(=O)(=O)CCC(F)(F)F)CC4)ncc23)CCO1; tested on = Exportin-7 (Homo sapiens, UniProt Q9UIA9); test = Kinobeads competition, refers to: XPO7; conditions = 0.032 µM, unit not given; scale = baseline: vehicle; endpoint = remaining binding; value = 1.1
Structure (SMILES) = CC[C@H](C)[C@H](NC(=O)[C@H](Cc1ccccc1)NC(=O)[C@H](CCC(=O)O)NC(=O)[C@H](CCCNC(=N)N)NC(=O)[C@H](C)NC(=O)[C@H](C)NC(=O)[C@H](CCC(N)=O)NC(=O)[C@H](CCC(=O)O)NC(=O)[C@H](CCC(=O)O)NC(=O)[C@H](CC(C)C)NC(=O)[C@H](Cc1ccc(O)cc1)NC(=O)[C@H](CO)NC(=O)[C@H](CO)NC(=O)[C@@H](NC(=O)[C@H](CC(=O)O)NC(=O)[C@H](CO)NC(=O)[C@@H](NC(=O)[C@H](Cc1ccccc1)NC(=O)[C@@H](NC(=O)CNC(=O)[C@H](CCC(=O)O)NC(=O)[C@H](C)NC(=O)CCc1c[nH]cn1)[C@@H](C)O)[C@@H](C)O)C(C)C)C(=O)N[C@@H](C)C(=O)N[C@@H](Cc1c[nH]c2ccccc12)C(=O)N[C@@H](CC(C)C)C(=O)N[C@H](C(=O)N[C@@H](CCCNC(=N)N)C(=O)NCC(=O)N[C@@H](CCCNC(=N)N)C(=O)N[C@@H](CCCCNC(=O)COCCOCCNC(=O)COCCOCCNC(=O)CC[C@H](NC(=O)CCCCCCCCCCCCCCCCC(=O)O)C(=O)O)C(=O)NCC(=O)NCC(=O)N[C@@H](CO)C(=O)N[C@@H](CCCCNc1c(NCCCCCN(O)C(=O)CCC(=O)NCCCCCN(O)C(=O)CCC(=O)NCCCCCN(O)C(C)=O)c(=O)c1=O)C(=O)O)C(C)C [zirconium-89 labelled]; test = ex vivo gamma counting; system = rat, brain; conditions = subcutaneous, 3 nmol/kg, 72 h, with: [89Zr]-labelled peptide; endpoint = tissue uptake; value = 0.01 %ID/g
Structure (SMILES) = Cc1cc(C(C)(C)c2ccc(O)c(C)c2)ccc1O; tested on = HepG2 spheroids, dissociated; test = annexin V-FITC/PI flow cytometry; conditions = 0.01 µM, 96 h; endpoint = early apoptotic cells; value = 4.23 ± 1.95%
Structure (SMILES) = Nc1nc(CC(O)c2ccccc2C(F)(F)F)c(Br)c(=O)[nH]1 (stereo not drawn); tested on = HeLa; test = cell morphology alteration; endpoint = minimum cytotoxic concentration; value = > 100 µM
Structure (SMILES) = CC(C)C[C@H](NC(=O)[C@H](C)NC(=O)[C@@H](NC(=O)[C@H](CCCNC(=N)N)NC(=O)[C@H](CC(C)C)NC(=O)[C@H](Cc1c[nH]c2ccccc12)NC(=O)[C@@H]1CCCN1C(=O)[C@@H](N)CCCCN)C(C)C)C(=O)N[C@@H](CS)C(=O)N1CCC[C@H]1C(=O)NCC(=O)O; tested on = H9c2; test = WST-1; conditions = 8 µM, 24 h; endpoint = viability; value = 93.8% and 112% and 88.4%
Structure (SMILES) = CC[C@H](C)[C@@H]1NC(=O)[C@@H]2CCCN2C(=O)[C@H](CC(C)C)NC(=O)[C@H](CC(C)C)NC(=O)CNC(=O)[C@@H](NC(=O)[C@@H](NC(=O)[C@H](CC(=O)O)NC(=O)CNC(=O)[C@@H](NC(=O)[C@H](C)NC(=O)CNC(=O)[C@H](CCCCN)NC(=O)[C@H](CC(C)C)NC(=O)[C@H](CC(C)C)NC(=O)[C@H](CCCCN)NC(=O)CNC(=O)[C@@H](NC(=O)[C@@H](N)CC(C)C)C(C)C)C(C)C)C(C)C)CSSC[C@@H](C(=O)O)NC1=O; test = RNA-seq, refers to: Bst1; system = mouse, traumatic brain injury model, frontal cortex and hippocampus; conditions = dose not given; scale = baseline: TBI alone; endpoint = log2 fold change; value = -3.08
Structure (SMILES) = O=c1ccc2ccccc2o1; tested on = HepaRG 3D spheroids; test = cell membrane permeability; conditions = concentration not given, 168 h, high-content imaging; endpoint = response probability; value = 99.4%
Structure (SMILES) = CC(C)(c1ccc(O)cc1)c1ccc(O)cc1; tested on = HepG2 spheroids, dissociated; test = annexin V-FITC/PI flow cytometry; conditions = 1 µM, 24 h; endpoint = late apoptotic cells; value = 4.31 ± 1.49%
Structure (SMILES) = O=c1cc(-c2ccccc2)oc2c(O)c(O)ccc12; tested on = uninduced SH-SY5Y Aβ-GFP cells; test = cytotoxicity, MTT; conditions = 24 h; endpoint = IC50; value = 79 µM
Structure (SMILES) = CO[C@H]1C[C@@H]2CC[C@@H](C)[C@@](O)(O2)C(=O)C(=O)N2CCCC[C@H]2C(=O)O[C@H]([C@H](C)C[C@@H]2CC[C@@H](OC(=O)NCCOCCOCCOCCOCCOCCOCCOCCOCCC(=O)N3CCc4cc(Cn5nc(-c6ccc7oc(N)nc7c6)c6c(N)ncnc65)ccc4C3)[C@H](OC)C2)C[C@@H](O)[C@H](C)/C=C(\C)[C@@H](O)[C@@H](OC)C(=O)[C@H](C)C[C@H](C)/C=C/C=C/C=C/1C; system = patients with advanced solid tumours; conditions = intravenous, 10 mg weekly, grade 3 or higher; endpoint = mucositis incidence; value = 12.5%
Structure (SMILES) = COc1cc2c(Oc3ccc4[nH]c(C)cc4c3F)ccnc2cc1OCC1(N)CC1; test = refers to: grade 3 intestinal obstruction; system = paediatric high-risk refractory sarcoma; conditions = whole group; endpoint = incidence of adverse event; value = 2.9%
Structure (SMILES) = CCc1ccc(NC(=O)c2cc3c(=O)n4ccccc4nc3n2C)cc1; tested on = Vero; test = MTT; conditions = 6.3 µM, 24 (unit not given); endpoint = viability; value = 73.4%

Some of these lines once more:
Structure (SMILES) = CC[C@H](C)[C@H](NC(=O)[C@H](CCCCN)NC(=O)[C@H](CC(N)=O)NC(=O)[C@H](CCCNC(=N)N)NC(=O)[C@H](C)NC(=O)[C@H](CC(C)C)NC(=O)[C@H](CC(C)C)NC(=O)[C@H](CCSC)NC(=O)[C@H](Cc1c[nH]cn1)NC(=O)[C@H](CC(C)C)NC(=O)[C@H](CC(C)C)NC(=O)[C@H](CC(=O)O)NC(=O)[C@H](CCC(N)=O)NC(=O)[C@@H]1CCCN1C(=O)[C@H](Cc1c[nH]c2ccccc12)NC(=O)CNC(=O)[C@@H]1CCCN1C(=O)[C@H](CC(C)C)NC(=O)[C@@H](NC(=O)[C@H](Cc1ccc(O)cc1)NC(=O)[C@@H](NC(=O)[C@H](CC(C)C)NC(=O)[C@H](CCCCN)NC(=O)[C@@H](N)CCCNC(=N)N)C(C)C)C(C)C)C(=O)N[C@@H](CCCNC(=N)N)C(=O)N[C@H](C(=O)N[C@@H](CC(C)C)C(=O)N[C@@H](CCCCN)C(=O)N[C@@H](CC(N)=O)C(=O)N[C@@H](CC(N)=O)C(=O)N[C@@H](CCSC)C(=O)N[C@@H](Cc1ccccc1)C(=O)N[C@@H](CO)C(=O)N[C@@H](CCCCN)C(=O)N[C@@H](Cc1ccccc1)C(=O)N[C@@H](CCCCN)C(=O)N[C@@H](CCCCN)C(=O)N[C@@H](CC(C)C)C(=O)N[C@@H](CCCCN)C(=O)N[C@@H](CO)C(=O)N[C@@H](CC(C)C)C(=O)O)[C@@H](C)O; tested on = PMA-differentiated THP-1; test = cell viability, MTT; conditions = 24 h; endpoint = CC50; value = 23.3 µM
Structure (SMILES) = O=c1cc(-c2ccccc2)oc2c(O)c(O)ccc12; tested on = uninduced SH-SY5Y Aβ-GFP cells; test = cytotoxicity, MTT; conditions = 24 h; endpoint = IC50; value = 79 µM
Structure (SMILES) = COc1cc2c(Oc3ccc4[nH]c(C)cc4c3F)ccnc2cc1OCC1(N)CC1; test = refers to: grade 3 intestinal obstruction; system = paediatric high-risk refractory sarcoma; conditions = whole group; endpoint = incidence of adverse event; value = 2.9%
